Results from different studies.
Parts stem from different laboratories: compare values within a part only.

Sample 1 — method: protein binding microarray; molecule type: double-stranded DNA, one strand shown; matrix: in vitro; concentration: not given; baseline: not given; direction: higher = stronger binding; measurement: E-score
Target: Histone acetyltransferase KAT6A, winged helix 2, GST fusion (KAT6A, Homo sapiens, UniProt Q92794, residues 85-181)
Notes: 8-mer, flanks averaged, mean of 2 arrays, mostly near background
Construct (chain): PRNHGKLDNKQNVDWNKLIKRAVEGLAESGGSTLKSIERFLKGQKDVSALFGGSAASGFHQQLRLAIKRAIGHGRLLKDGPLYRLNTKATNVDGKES
Sequence = CAAAGTAC; result = 0.0343
Sequence = ATGAAAAT; result = -0.0383
Sequence = CAAGAAGC; result = 0.116

Sample 2 — target: Sox-I, HMG box (Salpingoeca helianthica); method: Spec-seq; molecule type: double-stranded DNA, one strand shown; matrix: in vitro; concentration: not given; notes: whole probe, mean of replicates; baseline: not given; direction: lower = stronger binding; measurement: relative binding energy
Construct (chain): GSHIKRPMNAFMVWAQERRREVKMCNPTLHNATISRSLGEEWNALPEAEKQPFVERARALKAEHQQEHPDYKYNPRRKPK
Sequence = GAGTCGTCTCGTCAGCACATAGGTTCCGTAGAGCACTCAGGTC; result = 0.0763 ln ratio
Sequence = GAGTCGTCTCGTCAGCACCATAAATCCGTAGAGCACTCAGGTC; result = 0.218 ln ratio
Sequence = GAGTCGTCTCGTCAGCACGATCGTTCCGTAGAGCACTCAGGTC; result = 0.992 ln ratio
Sequence = GAGTCGTCTCGTCAGCACGTGAGTTCCGTAGAGCACTCAGGTC; result = 0.693 ln ratio

Sample 3 — method: universal PBM; molecule type: double-stranded DNA, one strand shown; matrix: in vitro; concentration: 600 nM; direction: higher = stronger binding; measurement: E-score
Target: Sal-like protein 4, full length isoform A (SALL4, Homo sapiens, UniProt Q9UJQ4, residues 1-1053)
Sequence of UniProt Q9UJQ4 (whole entry, looked up): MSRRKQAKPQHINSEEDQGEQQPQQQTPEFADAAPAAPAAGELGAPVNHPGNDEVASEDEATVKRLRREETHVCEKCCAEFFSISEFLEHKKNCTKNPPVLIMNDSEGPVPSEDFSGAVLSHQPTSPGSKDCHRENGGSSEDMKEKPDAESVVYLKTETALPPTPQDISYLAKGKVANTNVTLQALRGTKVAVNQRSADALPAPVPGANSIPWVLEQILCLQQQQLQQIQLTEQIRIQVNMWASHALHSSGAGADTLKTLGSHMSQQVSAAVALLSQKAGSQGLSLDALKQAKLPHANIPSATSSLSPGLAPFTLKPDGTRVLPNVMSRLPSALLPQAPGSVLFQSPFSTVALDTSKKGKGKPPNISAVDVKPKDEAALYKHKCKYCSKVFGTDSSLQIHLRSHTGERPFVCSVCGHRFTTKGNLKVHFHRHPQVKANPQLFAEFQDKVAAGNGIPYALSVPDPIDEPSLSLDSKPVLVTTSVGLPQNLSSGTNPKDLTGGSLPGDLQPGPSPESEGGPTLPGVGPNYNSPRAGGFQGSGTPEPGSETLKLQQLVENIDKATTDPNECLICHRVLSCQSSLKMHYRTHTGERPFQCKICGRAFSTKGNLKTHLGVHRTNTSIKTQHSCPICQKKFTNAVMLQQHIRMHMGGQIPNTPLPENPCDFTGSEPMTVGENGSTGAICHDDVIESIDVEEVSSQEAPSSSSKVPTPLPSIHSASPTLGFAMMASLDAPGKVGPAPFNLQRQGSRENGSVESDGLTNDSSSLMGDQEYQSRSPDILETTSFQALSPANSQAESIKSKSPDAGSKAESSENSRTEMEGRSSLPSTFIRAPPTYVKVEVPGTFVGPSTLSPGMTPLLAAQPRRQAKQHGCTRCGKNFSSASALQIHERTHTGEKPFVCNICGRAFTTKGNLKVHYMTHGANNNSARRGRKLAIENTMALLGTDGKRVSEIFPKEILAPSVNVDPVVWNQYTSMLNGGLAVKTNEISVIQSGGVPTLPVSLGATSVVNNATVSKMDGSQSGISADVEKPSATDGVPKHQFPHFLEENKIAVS
Notes: 8-mer, flanks averaged, mean of replicates
Sequence = AGCTATTC; result = 0.0745
Sequence = AGATTGAG; result = 0.167
Sequence = ACGAACTG; result = -0.0983
Sequence = CTGTCTTC; result = -0.0697

Mixed results
Substance = PhoQ, residues 284 288 289 292 302 303 NLMGRA; target = PhoP, residues 12 14 15 18 19 DLLYY (Escherichia coli, UniProt P23836); test = Sort-seq, measured: YFP reporter; test system = E. coli; setting = PhoQ-PhoP variant library, with: 10 µM Mg2+; how to read = baseline: high Mg2+ state, higher = stronger signaling; measurement = fold induction; result = 1.75

A few entries again (mixed results):
Substance = PhoQ, residues 284 288 289 292 302 303 NLMGRA; target = PhoP, residues 12 14 15 18 19 DLLYY (Escherichia coli, UniProt P23836); test = Sort-seq, measured: YFP reporter; test system = E. coli; setting = PhoQ-PhoP variant library, with: 10 µM Mg2+; how to read = baseline: high Mg2+ state, higher = stronger signaling; measurement = fold induction; result = 1.75
